Measurements gathered from unrelated publications.
A part holds a random share of what one study measured.

Study 1
Target: Histone acetyltransferase KAT6A, both winged helices, GST fusion (KAT6A, Homo sapiens, UniProt Q92794, residues 1-181)
Technique: protein binding microarray
Molecule type: double-stranded DNA, one strand shown
Medium: in vitro
Tested at: not given
Notes: 8-mer, flanks averaged, mean of 2 arrays, mostly near background
Relative to: not given
Reading: higher = stronger binding
Target sequence (chain): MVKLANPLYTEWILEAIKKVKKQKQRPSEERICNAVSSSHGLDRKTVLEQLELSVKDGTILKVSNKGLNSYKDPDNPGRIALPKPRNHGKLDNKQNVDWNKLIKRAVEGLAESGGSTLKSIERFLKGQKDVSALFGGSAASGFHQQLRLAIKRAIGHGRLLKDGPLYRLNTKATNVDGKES
Oligonucleotide	E-score
AGGCCTTC	-0.169
AGCCGAAT	0.122
GGCTTACA	0.00368
ACCTGTCA	-0.111

Study 2
Target: Transcriptional repressor CTCF (CTCF, Homo sapiens, UniProt P49711, residues 1-727, full length assumed)
Technique: protein-binding microarray
Molecule type: double-stranded DNA, one strand shown
Medium: in vitro
Tested at: not given
Notes: k-mer, scored over probes, only values ≥0.25
Reading: higher = stronger binding
Residues (chain): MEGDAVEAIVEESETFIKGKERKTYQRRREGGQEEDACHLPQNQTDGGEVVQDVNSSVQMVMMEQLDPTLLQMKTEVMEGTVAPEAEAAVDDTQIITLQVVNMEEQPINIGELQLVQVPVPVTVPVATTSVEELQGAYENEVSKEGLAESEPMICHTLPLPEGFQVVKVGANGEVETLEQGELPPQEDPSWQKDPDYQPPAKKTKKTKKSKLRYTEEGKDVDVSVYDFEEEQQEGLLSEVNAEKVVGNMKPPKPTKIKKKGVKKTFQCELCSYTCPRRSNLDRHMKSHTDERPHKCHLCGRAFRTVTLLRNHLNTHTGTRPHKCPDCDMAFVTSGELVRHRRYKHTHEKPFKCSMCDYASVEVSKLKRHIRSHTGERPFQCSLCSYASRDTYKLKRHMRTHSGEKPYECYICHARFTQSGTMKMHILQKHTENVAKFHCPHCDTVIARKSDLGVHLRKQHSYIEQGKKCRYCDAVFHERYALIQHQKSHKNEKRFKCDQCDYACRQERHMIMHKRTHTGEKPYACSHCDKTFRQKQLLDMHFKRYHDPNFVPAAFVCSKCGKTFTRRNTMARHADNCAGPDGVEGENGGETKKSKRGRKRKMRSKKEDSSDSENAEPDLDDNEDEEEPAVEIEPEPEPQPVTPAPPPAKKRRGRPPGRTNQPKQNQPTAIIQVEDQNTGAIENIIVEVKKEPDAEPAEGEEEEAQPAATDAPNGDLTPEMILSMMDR
Oligonucleotide	E-score
ATTATACA	0.327
CGTAATCA	0.291
TAACAACA	0.271
AATATGAA	0.276
ACAAATAA	0.373
ATTAAAAC	0.261

Study 3
Target: Centromere-binding protein 1, full length, His-tagged (CBF1, Saccharomyces cerevisiae, UniProt P17106, residues 1-351)
Chain of UniProt P17106 (whole entry, looked up): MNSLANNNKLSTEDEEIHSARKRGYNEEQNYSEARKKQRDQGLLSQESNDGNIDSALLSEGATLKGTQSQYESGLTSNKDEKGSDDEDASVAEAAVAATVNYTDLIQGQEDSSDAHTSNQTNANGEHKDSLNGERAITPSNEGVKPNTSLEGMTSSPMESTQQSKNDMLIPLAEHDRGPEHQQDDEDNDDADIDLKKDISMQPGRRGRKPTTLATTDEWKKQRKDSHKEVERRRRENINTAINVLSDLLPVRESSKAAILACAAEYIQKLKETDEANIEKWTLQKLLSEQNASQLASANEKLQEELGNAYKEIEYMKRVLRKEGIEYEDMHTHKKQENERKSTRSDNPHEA
Technique: competition protein-binding microarray
Molecule type: double-stranded DNA, one strand shown
Medium: in vitro
Tested at: 2 µM
Notes: whole 60-bp probe, lowest competitor level
Together with: Pho4 competitor, 0.05 µM
Reading: higher = stronger binding
Oligonucleotide	fluorescence intensity [a.u.]
CTCTCGAAGTTTGGAAACGTGGTGAGTGCCTTGACGGTCTTGATTCGCTTGACGCTGCTG	96.6
CATACCCAACCTTGCTACGTGGGTGAAGATATTTGTGTCTTGATTCGCTTGACGCTGCTG	72.2
AAATTACTAAGTTTTCACGTGTACTACCCCGTATGAGTCTTGATTCGCTTGACGCTGCTG	950
ACCGAAATTTCTCCACACGTGATGGTAAGTGTATTTGTCTTGATTCGCTTGACGCTGCTG	3500

Single results of other studies
Molecule	target	assay	test system	setting	scale	measurement	result
PhoQ, residues 284 288 289 292 302 303 MLMVEA	PhoP, residues 12 14 15 18 19 NQCAL (Escherichia coli, UniProt P23836)	Sort-seq, measured: YFP reporter	E. coli	PhoQ-PhoP variant library, together with: 10 µM Mg2+	relative to: high Mg2+ state, higher = stronger signaling	fold induction	6.78

Some of these lines once more (study 2):
Oligonucleotide	E-score
AATATGAA	0.276
ACAAATAA	0.373
